Values quoted from earlier work that unrelated publications cite.
Each line is one published result; not all experiments were run side by side. Numbers after ± are the reported error.

`CNC(C)C(=O)c1cccc(Cl)c1` (centres unmarked) gave an EC50 of 47 nM (dopamine transporter; dopamine release, releaser).
`CN1C(=O)CN=C(c2ccccc2)c2cc(Cl)ccc21` has a Hill coefficient of 0.8 (GABAA receptor, benzodiazepine site; binding; brain; historical reference data, together with: flunitrazepam).
The IC50 of `C#Cc1ccc2c(c1)C(c1ccccc1F)=N[C@@H](C)c1c(C(=O)OCC)ncn1-2` is reported as 111 nM (rat brain GABA-A receptors; binding).
Under IC50, `FC(F)(F)C(F)(F)C(F)(F)C(F)(F)CCI` is recorded as “inactive” (CYP2D6; inhibitor; Tox21 screening).
For `O=c1[nH]c(-c2ccc(-c3nnn[nH]3)cc2)ccc1O`, the IC50 was 85 ± 8 nM (influenza endonuclease; enzyme activity, inhibitor).
For `O=C(NN1CCCCC1)c1nc(-c2ccc(Cl)cc2Cl)n(-c2ccc(Cl)cc2)c1Cl`, the Ki was 27 nM (CB1 receptor; binding).
For `CCCC(C(=O)c1ccc2c(c1)OCO2)N1CCCC1.Cl` (racemic), the relative potency was 10 fold (norepinephrine transporter, rat; inhibitor; rat brain tissue; relative to: cocaine).
`NCCc1ccc(Oc2ccc(O)cc2)c(I)c1` gave an EC50 of 112 nM (mouse TAAR1; agonist).
With `CCCC(C(=O)c1ccc2c(c1)OCO2)N1CCCC1` (centres unmarked) the potency ratio was over 50 fold (dopamine transporter; dopamine uptake, inhibitor; relative to: cocaine).
For `O=S(=O)(O)C(F)(F)C(F)(F)C(F)(F)C(F)(F)F`, the IC50 was 57600 ± 20400 nM (CYP1A2; inhibitor; Tox21 screening).
The IC50 of `O=c1[nH]c(-c2ccc(-c3nnn[nH]3)cc2)ncc1O` is reported as 150 nM (influenza endonuclease; enzyme activity, inhibitor).

A few entries again:
The IC50 of `C#Cc1ccc2c(c1)C(c1ccccc1F)=N[C@@H](C)c1c(C(=O)OCC)ncn1-2` is reported as 111 nM (rat brain GABA-A receptors; binding).
